Published values from different studies.
A part holds a random share of what one study measured. Positions count from the first letter of the parent shown.

Block 1 — technique: RNAcompete; molecule type: RNA; medium: in vitro; tested at: 20 nM; setting: 7-mer, probes averaged, single round; baseline: mean of 7-mers; reading: higher = stronger binding
Target: PABPC1L2, full length, GST fusion (mouse, UniProt A0ABA7IW68)
Residues (chain): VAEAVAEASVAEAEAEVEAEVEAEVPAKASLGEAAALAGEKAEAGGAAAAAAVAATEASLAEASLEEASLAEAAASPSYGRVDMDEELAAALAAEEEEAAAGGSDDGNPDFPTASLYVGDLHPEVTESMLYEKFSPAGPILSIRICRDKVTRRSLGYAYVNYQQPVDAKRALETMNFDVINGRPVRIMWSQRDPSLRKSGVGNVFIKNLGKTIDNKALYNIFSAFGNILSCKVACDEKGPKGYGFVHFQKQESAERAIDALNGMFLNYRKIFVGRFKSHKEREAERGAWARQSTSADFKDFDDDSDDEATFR
Oligonucleotide | 7-mer Z-score
GUAAAUC | 0.106
ACCAAAA | 6.48
GAGCGGU | -0.0699
AAGACAA | 0.666
GCCGACC | -0.171
CGCGUCU | -0.412
CUCCAGA | -0.229
UGGUCAC | -0.101
CCGAGCC | -0.286
GUCCCAA | -0.079
CGUAGGA | -0.00289
AUAAGAU | -0.0101
GCAUCUG | -0.0174
CGGGCUC | 0.106
UGAUUAU | -0.148
AUUAUAG | -0.249
AUAUUAG | 0.0623
UAGUUAC | -0.228
GAAAGAU | 1.06
UAGCUUC | -0.425
GGGCAAU | 0.403
UACGGGA | 0.119
GCCGGUA | -0.0772
UACUCCC | -0.277
UCGGCGG | -0.0609

Block 2 — technique: protein binding microarray; molecule type: double-stranded DNA, one strand shown; medium: in vitro; tested at: not given; baseline: not given; reading: higher = stronger binding
Target: Histone acetyltransferase KAT6A, winged helix 1, GST fusion (KAT6A, Homo sapiens, UniProt Q92794, residues 1-85)
Setting: 8-mer, flanks averaged, mean of 2 arrays, mostly near background
Construct (chain): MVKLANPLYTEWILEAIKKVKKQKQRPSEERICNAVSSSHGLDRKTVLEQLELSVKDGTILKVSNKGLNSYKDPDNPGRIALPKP
Oligonucleotide | E-score
AGCCTCTC | -0.231
TGGTTTAA | -0.0955
GCTTGTCC | -0.00298
ATGTGTCA | -0.217
AGATCTGC | -0.282
CCTCGTAG | -0.00965
AGCCGGAA | 0.149
TCTCTTCA | -0.096
GTCCAATA | 0.0799
AAACTTAA | -0.056
GCACGTCA | -0.041
CATATCAC | -0.0379
CTAGTTCC | -0.025
AGTCCTGC | -0.0747
ATGGCCAG | -0.0935
ACTATTAC | 0.0751
CTCTCTCC | 0.00771
AGTGCACT | -0.3
GAGCCCAC | -0.0724
CGAATGGC | 0.0192
GCTCATGA | -0.0433
ATCAAAAA | -0.0107
ATAGGTTG | -0.2
ACGGGGAG | 0.284
AAGAACTT | -0.101

Block 3 — technique: RNA Bind-n-Seq; molecule type: RNA; medium: in vitro; tested at: not given; baseline: input RNA pool; reading: higher = stronger binding
Target: RING finger protein unkempt homolog, zinc fingers 1-6, GST-SBP tag (UNK, Homo sapiens, UniProt Q9C0B0, residues 30-357)
Sequence of UniProt Q9C0B0 (30-357, looked up): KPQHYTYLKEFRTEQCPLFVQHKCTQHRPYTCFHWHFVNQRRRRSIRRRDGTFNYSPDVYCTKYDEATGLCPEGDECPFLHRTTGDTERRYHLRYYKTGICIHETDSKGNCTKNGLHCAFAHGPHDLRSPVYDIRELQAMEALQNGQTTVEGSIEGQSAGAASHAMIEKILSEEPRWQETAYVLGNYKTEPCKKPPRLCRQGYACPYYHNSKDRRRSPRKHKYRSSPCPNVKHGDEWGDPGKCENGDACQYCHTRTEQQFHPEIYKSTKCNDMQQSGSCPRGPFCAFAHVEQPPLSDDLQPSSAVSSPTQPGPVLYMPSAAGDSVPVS
Setting: RNA with constant flanks, human and mouse sites, ends assumed
All sequences stand within: GGGAGUUCUACAGUCCGACGAUC … CAACAGAGGAUUGAGCAUCA
Oligonucleotide | bound/input enrichment
GUGACCAAUUUGUUGCAGUUACCUCAGUACUUUGAUUUGGAGAUAUACACCACUGGACGAUUAGAAAAGCAUUUGGAUGCCUUAUUGCGCCAGAUCCGAAAUAUUGUAGAGAAGCACACA | 0.534 ratio
UCUGUCAGUGAGGCUCAGGAGAAGAGAAACUCACGCCUGAGAGACUACAGAAGUCUGAUCGAGAAAGAUGUCAACAGAACAGAUCGAACGAACAAGUUUUAUGAAGGCCAAGAUAACCCA | 0.125 ratio
CAAACACCCUUUGUAUUCCAAAAUAGGGUCUCAAACAUUUUGUAAUUUUCAUUUAAAUUGUUAGGAGGCUUGGAGCUAUUAGUUAAUCUAUCUUCCAAUACACUGUUUAAUAUAGCACUG | 1.44 ratio
GAUGGACAAUUCAAAGAUAUCAGCCUAAGUGAAUACAAAGGAAAAUAUGUUGUGUUCUUCUUUUACCCUCUUGACUUUACUUUUGUGUGUCCCACGGAGAUCAUUGCUUUCAGUGAUAGA | 0.264 ratio
CAUAAAGUUUGAUGUGCAGUUUCCUGAAAACAACUGGAUCAACCCAGACAAGCUUUCUGAACUAGAAGAUCUUCUGCCAUCUAGACCGGAAGUUCCUAACAUAAUUGGAGAAACAGAGGA | 0.163 ratio
AAUGAAGCUGAAAUAUGUGAGAGCAUGCCCAUGGUCUCUGGAGCACCAGCACAAGGGUUGGUAGCAAGACCAUCCAGUGUGAACUAUAUGGUAGCACCUGUGACAGGUAACGAUGCUGGA | 0.145 ratio
CCCGGGGCAAGAGUUUAACAUCUUCGGCCCUGCAUUCCUACAUCUUGUGUCUGUACACGUUCUUAAGCAGCGUGUCAGGAGAGCACCCUGUUGUCUUCUGGUAAAUGUGUGCAGGGUCAU | 0.167 ratio
UUAGCUUAUGGCAACCAAGAAAGCAAGCUCAUCAUACUGGCUAGUGGUGGACCCCAAGCUUUAGUAAAUAUAAUGAGGACCUAUACUUACGAAAAACUACUGUGGACCACAAGCAGAGUG | 1.23 ratio
AAGUUUGUACCCCUGUCCUUCCCUUUACGCCACUAGUGUGUAGGCAGAUGUCUGAGUCCCUAGGUGGUUUCUAGGAUUGAUAGCAAUUAGCUUUGAUGAACCCAUCCCAGGAAAAAUAAA | 0.605 ratio
GAAAGAGUAGAUGGGCCCAAGCACAGCCUCCUCAUGCGUUGAAAUAAUGCCAAAUGCUCUUUAGUAAAAUGCUGAAUUACGGUGUUUUUUUUUUUUUUGCAUCAUUUGUCUUUAAUAUUC | 0.902 ratio
GGAGAGGUGGUUUCUAAAAGUGAUUGAAGCAGUUUGUGCAGUGUUUGUAAUUCUUGGGUAAGAGCCCAGGAUUUUGAAGAUAAUAGUUUUUUAGUAAAGUGCUACUAAAUGUAGUAAAUC | 8.64 ratio

Block 4 — target: CCNB3, cyclin fold, Cln2 fusion (human); technique: yeast growth competition, sequencing; medium: yeast; setting: strong parent motif; baseline: not given; reading: higher = stronger binding
Starting sequence: SCAPER docking peptide (human); SNARRSLNFGGST; partner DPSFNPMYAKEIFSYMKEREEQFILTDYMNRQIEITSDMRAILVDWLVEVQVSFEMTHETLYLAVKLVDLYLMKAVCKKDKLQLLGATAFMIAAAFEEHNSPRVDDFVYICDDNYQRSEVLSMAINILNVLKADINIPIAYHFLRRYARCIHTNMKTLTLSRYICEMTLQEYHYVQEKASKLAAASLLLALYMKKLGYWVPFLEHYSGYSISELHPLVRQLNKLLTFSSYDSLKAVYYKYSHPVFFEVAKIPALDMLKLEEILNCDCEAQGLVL
Variant | normalised enrichment score
SNARRDLNFGGST [S6D] | 0.252
SNARRSLNFCGST [G10C] | 0.611
SNARRSLNCGGST [F9C] | 0.0686
SNARRGLNFGGST [S6G] | 0.351
SNATRSLNFGGST [R4T] | 0.553
SNAARSLNFGGST [R4A] | 0.261
SNARRSLNFGFST [G11F] | 1.05
SNARRSLNFGGKT [S12K] | 1.38
SNARRWLNFGGST [S6W] | 0.596

Block 5 — technique: RNA Bind-n-Seq; molecule type: RNA; medium: in vitro; tested at: 365 nM; baseline: no-protein control; reading: higher = stronger binding
Target: RNA binding protein fox-1 homolog 2, RRM domain, GST-SBP tag (RBFOX2, Homo sapiens, UniProt O43251-10, residues 100-194)
Setting: natural RNA segment, single round, ends assumed
All sequences stand within: GGGAGUUCUACAGUCCGACGAUC … UGGAAUUCUCGGGUGCCAA
Residues (chain): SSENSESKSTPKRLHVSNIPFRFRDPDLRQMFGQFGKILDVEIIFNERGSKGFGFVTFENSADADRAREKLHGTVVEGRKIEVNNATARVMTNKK
Oligonucleotide | RBNS enrichment (R)
UUUCUUAAGGAUGCUGAGGGCAUGGGGCCAGGACCAGGGGAGAGGCACAGCUCCUUCCUGAGCAGCCUCUCACCACUGCCACAAGGCUCCCUAAUGCUGGUCUCUGCUCC | 0.289
GAAGAGUUCAAACAGAUGAUGUUUUUUCCAAAGAAAAACAAAUUGUUGACUCUCUUCCAUGCAUAUUUUAAGGAUUUGAAUCUGAUUUGAUUUGGAAAGUCAUGAAACUU | 0.494
GCUCCAGUAAUAUCUUGCCCGAAAAGUGGUCGUCUUCCAAGCAUGGUGUUCUGGGUCCCAGCCUUGUCUUAUCGCCUGUCCUGUCAGUGUCCAACCACACGGUGGCUUGG | 2.3
CUAGUCAUGUAAGCCACUAAGAUAGAAGGCCAGUCUCAGUUUCCCUAGGGAAGAGCCCAUCCUGGAGGCAGCCACAGUUUCCUCCCAUGGAGAUGGUCUGGAUAAAAGCC | 0.259
UAUUUUUUCUAGCCUAUGUAGUUGUUCAGCUUUUAACAAAUAACUCUGGCAGUAUUUUAAACAUGCUAGCAUUUCAGGGGUAUUCUACUUAAAAACAAAACAAAACUGGG | 0.557
AUGACCUGGAGUUAGGAGUGAGUUUGUGUGUUGUUGAUAGAGCAACUCAGGUAAUUUCCAUUUCUGGUUUUAUAUUCUCUGUAUCUCCUGCCUGGGUGUCACUUUCUAGA | 0.59
UAUUCCUGAGCCCCGAUGGAGUCUUGUGGCCUGGAGUUGGGGUGUCUAGGACAACAGUGCCCGGCCUUGCACCUACUUGCCAGUUCUGCUUUGCCCAGCCUUGCUUUGGA | 0.646
CCACAGGGGUGGCUUUGGGAUUGGAUGAUACAGCUUUUGCUUCUGUGUAGUAUACCUGUACAUACUUGUUUCAGGCAGCCUUUCUUUAAUGUUUUCAGUUGGUUUGUAUU | 0.673
GAGAGGCUCUACAUAAUCCAGGAGGGCAGGAUCCUCUACAAGGGUAAAUCUGGCCCUUGGAACUACAACCCAGAGGAAGUUCGUGCUGUUCUGGAAAAGCUCCACAGUUA | 0.233
CAUUGAAGCUCUCUGAGUUCUUUGAUUUUAAGUUGGGUUUAUGGAAUUUUUUCAAAUGUUGGAAGGUGUGUGGUUCUUCCUGCCCUCCCUCCCCUUUUGGAAAUAUGAAA | 0.464
GUAAGAAAGAAAGCCAGGACAAUAACUGGGCCAGCAGCUCUGAAGCACACCUUCCCCGUCUGUCCCAGUAGGGGCUGGCGCUGGGGUUGGAGGCCGCUGGCCUGUGCUCU | 0.251
AAACCCCACCUUUAUUCCUUCAUUUCAUCUACCAUUUUCUGGUUCUUGUGUUGGCUGUGGCAGGCCAGCUGUGGUUUUCUUUUGCCAUGACAACUUCUAAUUGCCAUGUA | 0.574

Block 6 — technique: DHFR PCA, deep sequencing; medium: yeast; with: (+)-ABA 17 µM; baseline: wild-type fitted maximum; reading: higher = stronger binding
Target: ABI1, truncated, D143A, DHFR fusion (Arabidopsis thaliana)
Setting: methotrexate growth selection, single substitutions
Starting sequence: PYL1, truncated, DHFR fusion (Arabidopsis thaliana); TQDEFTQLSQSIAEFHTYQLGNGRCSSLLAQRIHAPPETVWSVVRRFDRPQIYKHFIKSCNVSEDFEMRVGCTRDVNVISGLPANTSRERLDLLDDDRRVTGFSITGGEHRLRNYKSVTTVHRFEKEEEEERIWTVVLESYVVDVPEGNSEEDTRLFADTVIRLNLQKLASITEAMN; partner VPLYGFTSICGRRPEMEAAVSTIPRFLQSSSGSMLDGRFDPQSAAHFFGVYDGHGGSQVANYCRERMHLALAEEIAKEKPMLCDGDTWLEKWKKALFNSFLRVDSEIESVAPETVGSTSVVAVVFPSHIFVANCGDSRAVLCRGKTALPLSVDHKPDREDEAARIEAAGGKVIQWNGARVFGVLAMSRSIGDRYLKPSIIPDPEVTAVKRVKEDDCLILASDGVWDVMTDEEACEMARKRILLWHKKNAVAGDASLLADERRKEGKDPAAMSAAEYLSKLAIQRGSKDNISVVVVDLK
Variant | relative binding score [%]
R69Y | 56.7
H110W | 37.8
E139A | 31.6
V44Q | -22.3
I52N | 54.4
S117Q | 27.8
R90D | -20.6
Q19Y | 73.5
T173P | 2.78
D95W | 7.73
E4T | 81.1
T119G | -10.4
R46S | 68.9
T173F | 50.6
E67D | 79.7
R155C | 70.3
V78C | 74.6
S11E | 92.3
Q31F | 21.5

Excerpt of the above (block 1):
Oligonucleotide | 7-mer Z-score
UCGGCGG | -0.0609
AAGACAA | 0.666
GCCGGUA | -0.0772
AUUAUAG | -0.249
GCAUCUG | -0.0174
GAGCGGU | -0.0699
UAGUUAC | -0.228
AUAAGAU | -0.0101
CCGAGCC | -0.286
GUAAAUC | 0.106
GCCGACC | -0.171
